Assay results of several laboratories.
A part holds a random share of what one study measured.

Sample 1 — technique: protein binding microarray; form: double-stranded DNA, one strand shown; medium: in vitro; tested at: not given; reference: not given; direction: higher = stronger binding
Target: Histone acetyltransferase KAT6A, winged helix 2, GST fusion (KAT6A, Homo sapiens, UniProt Q92794, residues 85-181)
Notes: 8-mer, flanks averaged, mean of 2 arrays, mostly near background
Target sequence (chain): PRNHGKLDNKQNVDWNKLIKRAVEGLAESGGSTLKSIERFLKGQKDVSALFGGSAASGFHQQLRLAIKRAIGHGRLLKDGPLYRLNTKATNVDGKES
The E-score of `AGTCGACG` is reported as 0.163.
`AAAAGTGA` gave an E-score of -0.044.
The E-score of `AGCATATA` is reported as 0.0916.
With `ATTAATTA` the E-score was 0.122.
The E-score of `AATAACCC` is reported as -0.0895.
`CAACAAGA` gave an E-score of -0.0329.
`CACAACGC` gave an E-score of 0.00858.
The E-score of `ATCGTCAT` is reported as -0.0328.
With `ATCGCTCG` the E-score was 0.0562.
With `GTATGCAC` the E-score was 0.0846.
`AGACAGGG` has an E-score of -0.0349.
The E-score of `CGATTATA` is reported as -0.00453.
With `ATACTCTA` the E-score was -0.0381.
For `AATTTTAA`, the E-score was 0.161.
For `ACGGGTCA`, the E-score was -0.035.
With `ATGTTGTC` the E-score was -0.277.
For `CGAACAAA`, the E-score was 0.101.
`AGAATCCG` gave an E-score of 0.0599.
`AACAAACA` gave an E-score of 0.143.
`GACCTTAC` gave an E-score of 0.0145.
`CACCGTAG` gave an E-score of -0.0385.
The E-score of `AGACGGAG` is reported as 0.0781.

Sample 2 — technique: RNAcompete; form: RNA; medium: in vitro; tested at: 20 nM; notes: 7-mer, probes averaged, single round; reference: mean of 7-mers; direction: higher = stronger binding
Target: PABPC1L2, full length, GST fusion (mouse, UniProt A0ABA7IW68)
Target sequence (chain): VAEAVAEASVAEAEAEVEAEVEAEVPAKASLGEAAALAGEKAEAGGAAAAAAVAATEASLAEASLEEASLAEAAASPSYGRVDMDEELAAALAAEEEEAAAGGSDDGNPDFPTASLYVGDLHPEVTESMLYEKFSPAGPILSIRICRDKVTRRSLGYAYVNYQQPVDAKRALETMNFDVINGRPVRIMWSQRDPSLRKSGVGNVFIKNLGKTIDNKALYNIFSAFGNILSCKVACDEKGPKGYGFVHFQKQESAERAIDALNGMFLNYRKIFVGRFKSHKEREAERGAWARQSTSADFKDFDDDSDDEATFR
`ACACUUU` gave a 7-mer Z-score of -0.0663.
The 7-mer Z-score of `CCCGGGC` is reported as -0.344.
With `UGACAGU` the 7-mer Z-score was -0.15.
With `UGACCGC` the 7-mer Z-score was -0.0844.
The 7-mer Z-score of `CGGCACU` is reported as -0.128.
`UCGCAAU` gave a 7-mer Z-score of -0.188.
With `GCAUGAU` the 7-mer Z-score was 0.0406.
`CGAGUUC` gave a 7-mer Z-score of -0.311.
With `UGAGUGC` the 7-mer Z-score was -0.184.
`UUGAAAC` gave a 7-mer Z-score of -0.0391.
For `GUGCGGG`, the 7-mer Z-score was 0.124.
`CUUCCCC` gave a 7-mer Z-score of -0.409.
With `CUGUUCG` the 7-mer Z-score was -0.393.
The 7-mer Z-score of `GUAUUGC` is reported as -0.148.
For `AAUUCCU`, the 7-mer Z-score was -0.124.
The 7-mer Z-score of `CAGGGCA` is reported as 0.331.
`UAAAAUG` has a 7-mer Z-score of 2.39.
For `UCAGGAC`, the 7-mer Z-score was -0.184.

Sample 3 — technique: RNA Bind-n-Seq; form: RNA; medium: in vitro; tested at: 1 µM; notes: whole 134-nt RNA, ends assumed; together with: 150 mM KCl; reference: input library; direction: higher = stronger binding
Target: Ras GTPase-activating protein-binding protein 1, RRM domain (G3BP1, Homo sapiens, UniProt Q13283)
Chain of UniProt Q13283 (whole entry, looked up): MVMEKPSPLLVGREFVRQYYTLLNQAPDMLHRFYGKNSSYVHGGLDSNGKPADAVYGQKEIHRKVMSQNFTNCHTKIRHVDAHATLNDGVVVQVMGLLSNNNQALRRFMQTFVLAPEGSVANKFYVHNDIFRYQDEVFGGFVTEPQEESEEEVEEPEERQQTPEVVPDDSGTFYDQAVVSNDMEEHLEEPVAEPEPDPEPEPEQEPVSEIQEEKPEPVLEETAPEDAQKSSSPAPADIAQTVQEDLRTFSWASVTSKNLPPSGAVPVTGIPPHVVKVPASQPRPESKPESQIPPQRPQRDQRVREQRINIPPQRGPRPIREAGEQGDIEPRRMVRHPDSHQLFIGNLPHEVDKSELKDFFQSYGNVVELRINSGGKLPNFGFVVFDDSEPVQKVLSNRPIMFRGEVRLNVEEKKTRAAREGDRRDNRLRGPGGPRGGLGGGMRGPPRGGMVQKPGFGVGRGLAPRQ
All sequences stand within: GGGAGUUCUACAGUCCGACGAUC … UGGAAUUCUCGGGUGUCAAGG
For `CCUCAAGUCCUGUGCUACACAUCGUAUGUACCGAAUCGGGAGGGAGGGUGGGAAAGUAUUAUGUUACGCCGUUCGGAUCUGCACUUCCAG`, the log2 enrichment was 0.791.
The log2 enrichment of `GUCCUGUGCUACACAUCGUAUGUACCGAAUCAAAUUUUUUUAAAUUUUUAAACCCAAAAAAGUAUUAUGUUACGCCGUUCGGAUCUGCAC` is reported as -1.62.
With `AAGUCCUGUGCUACACAUCGUAUGUACCGAAUCGGCCCCCGGGCCCCCGGCCCCCGGAAAGUAUUAUGUUACGCCGUUCGGAUCUGCACU` the log2 enrichment was -0.271.
`CACAGACAACACGCACCCACACAGACACAGAGGGAAGGGGUUGGGAUGGGGACAGGGUGCACAGCAGGGCGGGGUAGGACCCCUGCCCCU` has a log2 enrichment of -0.407.
With `UCCUGUGCUACACAUCGUAUGUACCGAAUCGGGUUUUUUUGGUUUUUUUGGUUUUUUUGGAAAGUAUUAUGUUACGCCGUUCGGAUCUGC` the log2 enrichment was -0.0781.
With `UCCUCAAGUCCUGUGCUACACAUCGUAUGUACCGAAUCGGGGUGGUGGUGGGAAAGUAUUAUGUUACGCCGUUCGGAUCUGCACUUCCAG` the log2 enrichment was -0.0525.
With `CACAGACAAGACGCACCCACACAGACACAGAGGGAAGGGGUUGGGAUGGGGACAGGGUGCACAGCAGGGCGGGGUAGGACCCCAGCCCCU` the log2 enrichment was -0.0621.
For `ACCAUGCAGGUGGGCAUCUUUGGGAAGUGGGGCAAGGGGGGGAUAGGGAGGGGGGUAACACUUUGGGAACAGGUGGUCCAAAGUCGUUUC`, the log2 enrichment was -0.745.
`GCAGGAAGUAAAAACAAAUGGAAAUGCUUCGGAUAGUGGCAGGGGUGGGGGUUGCUAAGGAAAGGGCGGGAUGGGAGUGGGUAAAGAGUU` gave a log2 enrichment of 0.701.

Sample 4 — technique: RNA Bind-n-Seq; form: RNA; medium: in vitro; tested at: 365 nM; reference: no-protein control; direction: higher = stronger binding
Target: RNA binding protein fox-1 homolog 2, RRM domain, GST-SBP tag (RBFOX2, Homo sapiens, UniProt O43251-10, residues 100-194)
Notes: natural RNA segment, single round, ends assumed
All sequences stand within: GGGAGUUCUACAGUCCGACGAUC … UGGAAUUCUCGGGUGCCAA
Construct (chain): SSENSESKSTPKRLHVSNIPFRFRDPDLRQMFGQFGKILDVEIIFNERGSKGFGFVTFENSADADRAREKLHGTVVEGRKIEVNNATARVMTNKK
For `GGAAACCUCAGAACUGGUCUAUUUGGUGUCGUGGAACCUCUUACUGCUUUCAAUACACGAUUAGUAAUCAACUGUUUUGUAUACUUGUUUUCAGUUUUCAUUUCGACAAA`, “RBNS enrichment (R)” read 0.321.
`CUACACAUACAUGCACAUAGACACACACAUGAACACACUGAAGAUAUUUCCUUCAGGUGUGUGUAAAAUAUGCUGCUUGGAUUGAAAUUCAAAUGGGAUUGAUUAGUCAA` — result for “RBNS enrichment (R)”: 0.333.
`CUAAUGCUAAUAUUUCCAUCAAAAUUUGCCUGUGGAAUAUAUACAGUUCUUAAUUUUAAACUGUCAGUUCUUGAGAUAUACCGUGUGAAGCUAUUGUCAGCUUCUCUAUU`: “RBNS enrichment (R)” 0.63.
`UACUUUCUUUGAACAUACUUUGACCUGAAGCUCAAAGGUGGCAGUUGUGAGAUUGGGACACAUAUCUUGCCCAAUCAGAAGCUGUUUCUUAUCUUGAGAGUUAGGAGCAC` — result for “RBNS enrichment (R)”: 0.341.
`UUUAACAAAUGUUAUCAUGAUUAAGAAAAUUUCCAGCACUUUAAUGGCCAAUUAACUGAGAAUGUAAGAAAAUUGAUGCUGUACAAGGCAAAUAAAGCUGUUUAUUAACC`: “RBNS enrichment (R)” 1.16.
For `AUAAUCUUGGUUAUAAGGGAGUUAAAACAAUGCUGUAAUAAAUAAAGUGCUUCAUGUGAUCAAAAUCAAAUUUGUUAUCCUCUCUCAAAAGCCUGCUCUCCCUCUUACCU`, “RBNS enrichment (R)” read 0.527.
For `AGCAGCAGCCCCGGCAACUCUGGCUCCAGGCAGAAGGAGAGGCCCGGUGCAGCUGAGGUUCCCGACACCAGAAGCUGUUGGGAGAAAGCAAUACGUUUGUGCAGAAUCUC`, “RBNS enrichment (R)” read 0.375.
`ACAUAAUAAUUGAAAGUGGCAAUUCCUCUGGAGCUGUCUGCCAAAAGAAACUGCCUACAGACAUCAUCACAGCAGCCUCCUCACUUGGGUACUACCGUGUGGAAGCUGUG`: “RBNS enrichment (R)” 0.279.

Sample 5 — technique: RNA Bind-n-Seq; form: RNA; medium: in vitro; tested at: 15 pmol; notes: 4-mer, random 30-nt RNA, single round; together with: 3 µM DMDA-PatA, 2 mM AMP-PNP; reference: input library; direction: higher = stronger binding
Target: Eukaryotic initiation factor 4A-I (EIF4A1, Homo sapiens, UniProt P60842, residues 1-406, full length assumed)
Chain of UniProt P60842 (whole entry, looked up): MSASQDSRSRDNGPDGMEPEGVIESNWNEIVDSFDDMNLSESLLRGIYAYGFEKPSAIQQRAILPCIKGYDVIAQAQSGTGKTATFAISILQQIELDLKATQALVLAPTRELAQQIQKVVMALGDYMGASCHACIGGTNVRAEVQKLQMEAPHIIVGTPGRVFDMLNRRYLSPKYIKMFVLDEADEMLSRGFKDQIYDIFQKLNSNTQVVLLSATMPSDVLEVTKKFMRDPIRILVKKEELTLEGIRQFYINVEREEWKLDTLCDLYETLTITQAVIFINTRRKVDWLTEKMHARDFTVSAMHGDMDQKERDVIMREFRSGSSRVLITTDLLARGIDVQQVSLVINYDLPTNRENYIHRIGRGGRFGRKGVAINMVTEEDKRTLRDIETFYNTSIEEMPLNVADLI
For `CAUC`, the 4-mer enrichment was 0.4 fold.
With `AGUG` the 4-mer enrichment was 1.5 fold.
With `UCCU` the 4-mer enrichment was 0.652 fold.
The 4-mer enrichment of `UGGA` is reported as 1.19 fold.
With `AGCC` the 4-mer enrichment was 0.613 fold.
With `CCCG` the 4-mer enrichment was 0.682 fold.
`ACAU` has a 4-mer enrichment of 0.664 fold.
For `UGUU`, the 4-mer enrichment was 1.44 fold.
`UUUG` has a 4-mer enrichment of 1.36 fold.
`CGCG` gave a 4-mer enrichment of 1.2 fold.
`GCUC` gave a 4-mer enrichment of 0.701 fold.
`AGAA` has a 4-mer enrichment of 0.916 fold.
The 4-mer enrichment of `UAGG` is reported as 1.59 fold.
The 4-mer enrichment of `UAGC` is reported as 1.25 fold.
`CAAU` gave a 4-mer enrichment of 0.641 fold.
`UAUU` has a 4-mer enrichment of 1.14 fold.
`AGCU` gave a 4-mer enrichment of 0.924 fold.

A few entries again (sample 2):
`UUGAAAC` gave a 7-mer Z-score of -0.0391.
For `GUGCGGG`, the 7-mer Z-score was 0.124.
`CUUCCCC` gave a 7-mer Z-score of -0.409.
With `CUGUUCG` the 7-mer Z-score was -0.393.
The 7-mer Z-score of `GUAUUGC` is reported as -0.148.
